# Measurements pooled from the literature.
# Compare with care: the assays were run in different laboratories. Numbers after ± are the reported error.
SMILES,cell line,assay,setting,IC50
COc1ccc2cc3[n+](cc2c1OCc1cn(Cc2ccc([N+](=O)[O-])cc2)nn1)CCc1cc2c(cc1-3)OCO2,SW1990,"cell growth or viability, MTT",,54.2 µM
Cc1c(C)n(-c2c(C(C)C)cccc2C(C)C)c(=[Se])n1-c1c(C(C)C)cccc1C(C)C.[Cl][Au],LoVo,"cell growth or viability, MTT",72 h,1 µM
CC1CC(=O)N(CCCCCN)N=C1c1ccc(NC(=O)N2Cc3ccncc3C2)cc1 (centres unmarked),MDA-MB-453,"cell growth or viability, ATP luminescence",,< 3e-05 µM
COc1c(C)c(OC(=O)c2ccccc2)c(C)c(OC(=O)c2ccccc2)c1C(=O)/C=C/c1ccccc1,FaDu,"cell growth or viability, SRB",72 h,24.5 µM
CCn1nc(Cl)c2c1-c1cnc(N)c(c1)O[C@H](C)c1cc(F)ccc1-c1nn(C)cc1C2,wild-type ALK fusion cell lines,cell viability,geometric mean over 8 lines,< 0.0011 µM
Cn1cc(-c2cc(N3CCCCS3(=O)=O)ccc2N[C@H]2CC[C@H](C)CC2)c2cc[nH]c2c1=O (stereo in doubt),Light2 cells expressing SMO^D473H,"GLI-luciferase reporter, inhibitor, refers to: SMO^D473H",,0.00053 µM
C=CC(OC(C)=O)c1ccc(OC)cc1 (centres unmarked),HSC-4,MTT,24 h,> 50 µM
CN(C)/C=C/C(=O)c1ccc2[nH]c3ncc(-c4ccc(N5CCN(C)CC5)cc4)cc3c2c1,Ba/F3 NPM-ALK wild type,"cell proliferation, [3H]-thymidine incorporation",,0.39 µM
N#C/C(=C\c1cn(-c2ccccc2)nc1-c1ccc(Cl)cc1Cl)c1nc2ccccc2[nH]1,SW1990,"cell growth or viability, ATP luminescence",72 h,> 100 µM
CC(=O)O[C@@H]1CC[C@@]2(C)[C@@H](CC[C@]3(C)[C@@H]2C(=O)C=C2[C@@H]4[C@@H](C)[C@H](C)CC[C@]4(C)CC[C@]23C)[C@@]1(C)C(=O)O,HBE,"cell growth or viability, MTT",48 h,26.2 µM
CC(=O)OC[C@]1(C)CCC[C@]2(CO)[C@@H]1CC[C@@]13C[C@@H](C[C@H](O)[C@H]12)[C@H](C)C3=O,HBE,"cell growth or viability, MTT",,> 20 µM
COc1ccc(-c2cc(-c3nnn(-c4ccc(Br)cc4)c3C)nc(N)c2C#N)cc1,BALB/3T3,"cell growth or viability, MTT",,15.1 µg/mL
CC(=O)N[C@@H](CCCNC(=N)N)C(=O)N[C@H](CC(=O)N[C@@H](Cc1ccccc1)C(N)=O)c1cccc2ccccc12,MCF-7 (no HER2 overexpression),,,26.1 ± 1.75 µM
COc1cc(/C=C/C(=O)CC(C)=O)ccc1O,mouse Splenic lymphocyte,"cell growth or viability, MTT",48 h,20 µM
C[C@@H](C(=O)Nc1ccc(Cn2cc(C(F)(F)F)ccc2=O)cc1)N(C)C,NIH3T3,"cell proliferation, CCK-8",,310 ± 3.7 µM
CCOP(=O)(OCC)C(Cc1cc(F)c(F)c(F)c1)Nc1ccccc1 (centres unmarked),U-118-MG,"cell growth or viability, MTT",48 h,40.8 µM
N[C@@H](CCC(=O)N[C@@H](CS[Se]Cc1ccc(-c2cc(C(F)(F)F)nn2-c2ccc(S(N)(=O)=O)cc2)cc1)C(=O)NCC(=O)O)C(=O)O,WM35 melanoma cells,"cell viability, MTS","24 h, radial stage",52.6 ± 3.8 µM
N=C(N/N=C/c1ccc[nH]1)N/N=C/c1ccc[nH]1,KP-4,"cell growth or viability, crystal violet",72 h,0.52 µM
O=C1C(Br)=C(Br)C(=O)c2ccccc21,HuCC-A1,"cell growth or viability, MTT",,48.3 µM
CCOC12C(O)C(OC)C3(O)CC(C1C3OC(=O)c1ccccc1)C13C(OC)CCC4(COC)CN(C)C1C2C(OC)C43 (centres unmarked),HBE,"cell growth or viability, MTT",,25.5 µM

# A few entries again:
SMILES,cell line,assay,setting,IC50
COc1ccc2cc3[n+](cc2c1OCc1cn(Cc2ccc([N+](=O)[O-])cc2)nn1)CCc1cc2c(cc1-3)OCO2,SW1990,"cell growth or viability, MTT",,54.2 µM
Cc1c(C)n(-c2c(C(C)C)cccc2C(C)C)c(=[Se])n1-c1c(C(C)C)cccc1C(C)C.[Cl][Au],LoVo,"cell growth or viability, MTT",72 h,1 µM
